Experimental data from different studies.
Compare with care: the assays were run in different laboratories. ≈ marks a conversion by molar mass, not a printed value.
Organism: Acinetobacter baumannii

Compound | assay | system | setting | scale | endpoint | value
CCCCCCCCCCCCCC(=O)N[C@@H](Cc1ccc(O)cc1)C(=O)N[C@@H](CCCCN)C(=O)N[C@@H](CCCCN)C(=O)N[C@@H](CCCCN)C(=O)N[C@@H](CCCCN)C(N)=O |  | clinical isolate |  |  | MBC | 128 µg/mL (≈ 142 µM)
Oc1cc(C(F)(F)F)ccc1-c1nc2c(C(F)(F)F)cc(C(F)(F)F)cc2[nH]1 |  | colistin-resistant | concentration not given, added: polymyxin B nonapeptide up to 10 µg/mL |  | MIC change | no effect
C[C@H]1COc2c(N3CCN(C)CC3)c(F)cc3c(=O)c(C(=O)N[C@@H](CCCNC(=N)N)C(=O)N[C@@H](Cc4ccc(-c5ccccc5)cc4)C(=O)N[C@@H](CCCNC(=N)N)C(=O)N[C@@H](Cc4ccc(-c5ccccc5)cc4)C(=O)N[C@@H](CCCNC(=N)N)C(N)=O)cn1c23 | broth microdilution | ATCC 1799 |  | baseline: MIC of unconjugated components | fold MIC improvement | 4 to 40 fold
CC(C)C[C@H](NC(=O)[C@H](Cc1ccc(O)cc1)NC(=O)[C@@H]1CCCN1C(=O)[C@H](CCCNC(=N)N)NC(=O)[C@@H]1CCCN1C(=O)[C@H](CCCCN)NC(=O)[C@H](CC(=O)O)NC(=O)[C@@H]1CCCN1C(=O)[C@H](CCCNC(=N)N)NC(=O)C1(N)CCCCC1)C(=O)N1CCC[C@H]1C(=O)N[C@@H](CCCNC(=N)N)C(=O)N1CCC[C@H]1C(=O)N[C@@H](CCCNC(=N)N)C(=O)N1CCC[C@H]1C(=O)N1CCC[C@H]1C(=O)N[C@@H](CCCNC(=N)N)C(=O)N1CCC[C@H]1C(=O)N[C@H](C(=O)N[C@@H](CCCNC(=N)N)C(=O)N[C@@H](CSc1c(F)c(F)c(SC[C@H](NC(=O)[C@H](CCCNC(=N)N)NC(=O)[C@@H](NC(=O)[C@@H]2CCCN2C(=O)[C@H](CCCNC(=N)N)NC(=O)[C@@H]2CCCN2C(=O)[C@@H]2CCCN2C(=O)[C@H](CCCNC(=N)N)NC(=O)[C@@H]2CCCN2C(=O)[C@H](CCCNC(=N)N)NC(=O)[C@@H]2CCCN2C(=O)[C@H](CC(C)C)NC(=O)[C@H](Cc2ccc(O)cc2)NC(=O)[C@@H]2CCCN2C(=O)[C@H](CCCNC(=N)N)NC(=O)[C@@H]2CCCN2C(=O)[C@H](CCCCN)NC(=O)[C@H](CC(=O)O)NC(=O)[C@@H]2CCCN2C(=O)[C@H](CCCNC(=N)N)NC(=O)C2(N)CCCCC2)C(C)C)C(=O)NN)c(F)c1F)C(=O)NN)C(C)C | flow cytometry |  | 2 × MBC, 90 min | baseline: untreated | ROS generation | 4.8 fold
CCCCCCCCCCCCCCCC(=O)N[C@@H](CCCCN)C(=O)N[C@@H](CCCCN)C(=O)N(CCCCN)CC(=O)N[C@@H](CCCCN)C(=O)N[C@@H](CCCCN)C(N)=O |  | clinical isolate |  |  | MBC | 128 µg/mL (≈ 143 µM)
CC(=O)N[C@H](CCCCN)C(=O)N[C@H](CC(C)C)C(=O)N[C@H](CCCCN)C(=O)N[C@H](CO)C(=O)N[C@H](CC(C)C)C(=O)N[C@H](CC(C)C)C(=O)N[C@H](CCCCN)C(=O)N[C@@H](C(=O)N[C@H](CC(C)C)C(=O)N[C@H](CO)C(=O)N[C@H](CCCCN)C(=O)N[C@H](C)C(=O)N[C@H](CCCCN)C(=O)N[C@H](CCCCN)C(=O)N[C@H](CCCCN)C(=O)N[C@H](CC(C)C)C(=O)N[C@H](CC(C)C)C(=O)N[C@H](CCCCN)C(=O)N[C@@H](C(=O)N[C@H](C)C(=O)N[C@H](CC(C)C)C(=O)N[C@H](CCCCN)C(=O)N[C@H](C)C(=O)N[C@H](CC(C)C)C(=O)N[C@H](CO)C(=O)N[C@H](CCCCN)C(N)=O)[C@H](C)O)[C@H](C)O |  | 11 isolates | 24 h, 37 °C |  | MIC geometric mean | 0.5 µM (≈ 1.46 µg/mL)
C[C@@H](O)[C@H](NC(=O)c1ccc(C#Cc2ccc(CN3CCOCC3)cc2)cc1)C(=O)NO | microbial growth, broth dilution |  | clinical isolate |  | MIC90 | > 64 µg/mL
CCCCCCCCCCCCCCCCC(=O)N[C@@H](CCCCN)C(=O)N[C@@H](CCCCN)C(=O)N(CCCCN)CC(=O)N[C@@H](CCCCN)C(=O)N[C@@H](CCCCN)C(N)=O |  | clinical isolate |  |  | MBC | 128 µg/mL (≈ 141 µM)
CC(C)C[C@H](NC(=O)[C@H](Cc1ccc(O)cc1)NC(=O)[C@@H]1CCCN1C(=O)[C@H](CCCNC(=N)N)NC(=O)[C@@H]1CCCN1C(=O)[C@H](CCCCN)NC(=O)[C@H](CC(=O)O)NC(=O)[C@@H]1CCCN1C(=O)[C@H](CCCNC(=N)N)NC(=O)C1(N)CCCCC1)C(=O)N1CCC[C@H]1C(=O)N[C@@H](CCCNC(=N)N)C(=O)N1CCC[C@H]1C(=O)N[C@@H](CCCNC(=N)N)C(=O)N1CCC[C@H]1C(=O)N1CCC[C@H]1C(=O)N[C@@H](CCCNC(=N)N)C(=O)N1CCC[C@H]1C(=O)N[C@H](C(=O)N[C@@H](CCCNC(=N)N)C(=O)N[C@@H](CSc1c(F)c(F)c(-c2c(F)c(F)c(SC[C@H](NC(=O)[C@H](CCCNC(=N)N)NC(=O)[C@@H](NC(=O)[C@@H]3CCCN3C(=O)[C@H](CCCNC(=N)N)NC(=O)[C@@H]3CCCN3C(=O)[C@@H]3CCCN3C(=O)[C@H](CCCNC(=N)N)NC(=O)[C@@H]3CCCN3C(=O)[C@H](CCCNC(=N)N)NC(=O)[C@@H]3CCCN3C(=O)[C@H](CC(C)C)NC(=O)[C@H](Cc3ccc(O)cc3)NC(=O)[C@@H]3CCCN3C(=O)[C@H](CCCNC(=N)N)NC(=O)[C@@H]3CCCN3C(=O)[C@H](CCCCN)NC(=O)[C@H](CC(=O)O)NC(=O)[C@@H]3CCCN3C(=O)[C@H](CCCNC(=N)N)NC(=O)C3(N)CCCCC3)C(C)C)C(=O)NN)c(F)c2F)c(F)c1F)C(=O)NN)C(C)C | DiOC2 flow cytometry |  | 0.1 × MBC |  | membrane depolarization | > 50%

For quick reference, copied from above:
Compound | assay | system | setting | scale | endpoint | value
CCCCCCCCCCCCCC(=O)N[C@@H](Cc1ccc(O)cc1)C(=O)N[C@@H](CCCCN)C(=O)N[C@@H](CCCCN)C(=O)N[C@@H](CCCCN)C(=O)N[C@@H](CCCCN)C(N)=O |  | clinical isolate |  |  | MBC | 128 µg/mL (≈ 142 µM)
